Published values from different studies.
Each numbered part is a random draw from the data of one study; scales do not carry over between parts. Substitutions count along the parent as printed.

Sample 1 — technique: universal PBM; molecule type: double-stranded DNA, one strand shown; sample: in vitro; concentration: not given; reading: higher = stronger binding
Target: Sal-like protein 4, full length isoform B (SALL4, Homo sapiens, UniProt Q9UJQ4-2, residues 1-616)
Notes: 8-mer, flanks averaged, mean of replicates
Strand | E-score
CTGACCAA | -0.123
ACTTTCCC | -0.0568
AATGATAC | 0.263
AGCGGAGC | -0.285
GAGGAATC | -0.137
CAAGCCCG | -0.31
CAAATCGG | -0.0539
GGGACTAA | -0.00298
CGCTGACG | -0.171
CCACCGGC | -0.396
CTGGGACC | -0.283
CACAAGAC | 0.0329
GCTTAGGA | -0.266
ACCCTATC | -0.0239
GTCATGAA | 0.0665
GAGAGACC | -0.246
GGAGCTCC | -0.292
ATGTCAGA | 0.137
AGCTCTCC | -0.158
AGCCTACG | -0.0985
AGGGCCTC | -0.246
AATGGGCA | 0.0511
AGTCGTTA | 0.0276
GTATGGAC | 0.118

Sample 2 — target: CCNB1, cyclin fold, Cln2 fusion (human); technique: yeast growth competition, sequencing; sample: yeast; notes: weak parent motif; baseline: not given; reading: higher = stronger binding
Starting sequence: RBL1 docking peptide (human); GSAKRRLFGEDPP
Change | normalised enrichment score
GSAMRRLFGEDPP [K4M] | 0.134
GSAWRRLFGEDPP [K4W] | 0.619
GSAKRRLYGEDPP [F8Y] | -0.0978
GSAKRRLVGEDPP [F8V] | 0.602
GSAKRRLFGEDFP [P12F] | 0.649
GSAKRRLFGETPP [D11T] | 1.17
GSAKRRLFGEDPI [P13I] | 0.301
GAAKRRLFGEDPP [S2A] | 1.11
GTAKRRLFGEDPP [S2T] | 0.535
GSAKSRLFGEDPP [R5S] | 1.15
GYAKRRLFGEDPP [S2Y] | 0.704
GSAKRRLFGFDPP [E10F] | 1.31
GSAKRRVFGEDPP [L7V] | 0.871
GSAKRRLFGEDPR [P13R] | 0.287
GSAKRRLFGELPP [D11L] | 0.832
GSAKRRLSGEDPP [F8S] | 0.069
GSAKRRLFGEHPP [D11H] | 0.56
GSAKRRLFGEDNP [P12N] | 0.597
WSAKRRLFGEDPP [G1W] | 1.16
GSAKRGLFGEDPP [R6G] | 0.523
NSAKRRLFGEDPP [G1N] | 1.06
GSAKRRLFGEQPP [D11Q] | 0.59
GSAKRRLFGEVPP [D11V] | 0.493
GSAKARAFGEDPP [R5A L7A] | 0.187
GSAKRRHFGEDPP [L7H] | -0.408

Sample 3 — technique: protein binding microarray; molecule type: double-stranded DNA, one strand shown; sample: in vitro; concentration: not given; baseline: not given; reading: higher = stronger binding
Target: Histone acetyltransferase KAT6A, both winged helices, GST fusion (KAT6A, Homo sapiens, UniProt Q92794, residues 1-181)
Notes: 8-mer, flanks averaged, mean of 2 arrays, mostly near background
Target sequence (chain): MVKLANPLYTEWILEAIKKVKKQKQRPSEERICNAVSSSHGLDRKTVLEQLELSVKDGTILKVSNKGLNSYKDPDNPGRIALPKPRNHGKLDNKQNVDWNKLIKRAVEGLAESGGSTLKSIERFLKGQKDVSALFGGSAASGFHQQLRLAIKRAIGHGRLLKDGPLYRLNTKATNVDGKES
Strand | E-score
CAAACTAC | -0.182
GGAACTCC | 0.0177
AAAGGAAG | -0.0202
CGATCTTC | 0.108
ACGATAGG | -0.0898
ATGTTCCA | -0.0581
CAAGAGAA | -0.0424
CAGGGACC | -0.124
TATACTAA | -0.248
AGTGACAG | -0.116
GAAGGTCA | -0.187
CCTTCACA | -0.184
TAATATTA | -0.0824
CAACGACC | -0.107
CTGTTCCA | -0.202
AAGCTGCG | 0.00862
CTGCGCTA | 0.168
CTTCTGCC | -0.0795
AGTCGAAC | 0.0444
ACTGTGCT | -0.0427
CCTTTCCC | 0.094
ACCGTGCC | 0.0759
CATTAGAA | -0.0478

Sample 4 — target: NFIL3, bZIP domain (human); technique: DHFR protein complementation; sample: yeast; baseline: wild-type JUN-FOS pair; reading: higher = stronger binding
Notes: single substitutions, most at no-binding floor
Starting sequence: JUN, bZIP domain (human); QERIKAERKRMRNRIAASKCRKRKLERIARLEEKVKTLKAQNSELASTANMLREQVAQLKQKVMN; partner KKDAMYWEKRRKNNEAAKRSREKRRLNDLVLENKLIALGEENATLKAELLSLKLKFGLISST
Change | binding fitness
I28P | -1.43 natural log
L38R | -1.46 natural log
E44K | -1.46 natural log
Q55I | -1.22 natural log
E32P | -1.37 natural log
V35A | -1.34 natural log
K34M | -1.44 natural log
Q41T | -1.49 natural log
L31F | -1.27 natural log
K39Y | -1.45 natural log
L31Y | -1.39 natural log
E33D | -1.42 natural log
K36I | -1.33 natural log
R30M | -1.27 natural log
E44F | -1.38 natural log
K39S | -1.33 natural log

Sample 5 — technique: RNA Bind-n-Seq; molecule type: RNA; sample: in vitro; concentration: not given; baseline: input RNA pool; reading: higher = stronger binding
Target: RING finger protein unkempt homolog, zinc fingers 1-6, GST-SBP tag (UNK, Homo sapiens, UniProt Q9C0B0, residues 30-357)
Sequence of UniProt Q9C0B0 (30-357, looked up): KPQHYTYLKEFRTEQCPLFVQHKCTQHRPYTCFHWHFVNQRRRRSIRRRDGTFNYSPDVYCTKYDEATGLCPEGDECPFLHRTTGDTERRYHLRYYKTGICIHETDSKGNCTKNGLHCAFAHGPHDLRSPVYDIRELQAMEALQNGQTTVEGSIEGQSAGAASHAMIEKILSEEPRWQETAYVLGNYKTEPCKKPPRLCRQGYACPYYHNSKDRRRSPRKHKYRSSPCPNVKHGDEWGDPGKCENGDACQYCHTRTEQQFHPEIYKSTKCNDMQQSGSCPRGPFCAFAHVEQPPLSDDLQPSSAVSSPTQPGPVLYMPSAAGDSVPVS
Notes: RNA with constant flanks, human-mouse chimeric sites, ends assumed
Strand | bound/input enrichment [ratio]
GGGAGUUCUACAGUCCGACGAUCAUAAAGGCUAUGUUGAGUGGUCCAGGUCAGUUUGCUGAGAAUGAAACCAACGAGGUCAAUUUUAGAGAGAUACCUUCACAUGUGCUAUCAAAAGUGUGCAUGUAUUUUACCUACAAGGUCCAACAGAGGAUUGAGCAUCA | 0.109
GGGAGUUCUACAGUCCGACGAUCGCUCUUGGGAAUGUAAUCAGCGCCUUGGGAGACAAGAGCAAGAGAGCCACCCAUGUCCCCUAUAGAGACUCUAAGCUGACAAGACUCUUGCAGGAUUCCCUUGGGGGUAACAGCCAAACCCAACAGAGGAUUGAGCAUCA | 0.132
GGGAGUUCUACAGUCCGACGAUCUAAGUCCUGUGCCAGCACUUCGCUCAUUAUAUUUUAAAUUCUGGACCAAUAGUGUUUGUUUCCUGAUUAUUGUAUCCAAUACUUUGCGUACUAUGUGACUCACUCUUACUGAUAAUAAAACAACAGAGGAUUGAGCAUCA | 1.41
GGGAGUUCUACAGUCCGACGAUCUCAGGAACCCAGACAAACAUGAAUGUAAAUGAAGUCAUUAGCAACAGAGCAAUUGAAAUGUUAGGAGGUGAACUUGGCAGCAAGAAGCCUGUGCAUCCCAAUGAUCAUGUUAAUAAAAGCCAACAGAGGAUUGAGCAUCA | 0.277
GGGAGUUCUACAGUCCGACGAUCCGCUUGGAUGAGGCUGGUGUCACAGAUGAAGUGCUAGAUUCUGCCAUGCAAGCCUUCUUACUAGAAAUCAUUGUUAAACAUGGGGAGCCGGCACCUUAUUUAUGUAACAAAGAUCCGUUUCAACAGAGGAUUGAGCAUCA | 0.252
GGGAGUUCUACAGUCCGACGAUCGCCACCAGAUCCCAGAAACAUGACCCUUGCAGCCUAUAAAGAGAAGAUGAAGGAGCUCCCGCUGGUGUCCUUGUUCUGCUCCUGCUUCUUGUCUGAUCCCCUGAAUAAGUCGUCCUACAACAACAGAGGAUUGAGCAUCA | 0.288
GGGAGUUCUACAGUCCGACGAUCGUACUGCAACAGCAGGGAAAACUGCAGGAAGCUCUGAUGCAUUAUAAGGAGGCUAUUCGAAUUAGUCCUACCUUUGCUGAUGCCUACUCUAAUAUGGGAAACACUCUAAAGGAGAUGCAGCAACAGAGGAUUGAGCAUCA | 0.205
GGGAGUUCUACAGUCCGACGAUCUCAGUCUUUUUGUACAGUAAGUUAUUUUCUUAACAUUUUUAUAUUGCCAUGUUUAUUUUGUUUGGGUAAUUUGGUUCAUUAAGUACAUAGCUAAGGUAAUGAACAUCUUUUUCAGUAAUUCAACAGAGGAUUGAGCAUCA | 2.44
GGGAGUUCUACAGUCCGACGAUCGACUUUGGGACUGGUCCUCGUAAUGCAGCCUUCUAUAGCCCUCAUGGACAUAUAUUAGUGCUGGCUGGAUUUGGAAAUCUUCGAGGACAAAUGGAAGUAUGGGAUGUUAAAAACUACAAGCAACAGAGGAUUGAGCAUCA | 0.369
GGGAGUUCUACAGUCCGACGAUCGAGCGUCUUGCCCGCACUGGGAUCAUCGUGACCACUAGUGAGGCUGUCCUCCUACAGCUGGUGGCUGACAAAGACCAUCCAAAAUUCAAGGAAAUUCAGAAUCUAAUUAAGGCGAGUGCCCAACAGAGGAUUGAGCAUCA | 0.202
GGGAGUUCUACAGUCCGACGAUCUCAACAGACAACAUCAAAUACCAGCCUAAAGGGGGGCAGGUACAAAUUGUUACCAAGAAGAUAGACUUAAGCCAUGUGACAUCCAAAUGUGGCUCUCUAAAGAACAUCCGCCACAGGCCACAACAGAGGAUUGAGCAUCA | 0.327

Sample 6 — technique: aptamer microarray, sandwich; molecule type: DNA with 2'F-ANA; sample: in vitro; concentration: 200 nM; with: Cy3 exosite-II aptamer, 400 nM; reading: higher = stronger binding; strand: GGTTGGTGTGGTTGG
Target: Prothrombin, mature alpha-thrombin (F2, Homo sapiens, UniProt P00734)
Notes: whole 15-mer aptamer, many near background
Modification | mean fluorescence intensity
2'F-ANA at 4 5 7 8 10 11 13 14 15 | 49 a.u.
2'F-ANA at 1 4 5 6 7 8 9 11 13 14 | 48.6 a.u.
2'F-ANA at 1 5 8 11 12 13 | 81.7 a.u.
2'F-ANA at 1 3 4 6 8 11 12 | 338 a.u.
2'F-ANA at 2 4 6 7 8 9 11 15 | 233 a.u.
2'F-ANA at 2 3 5 6 8 9 10 11 12 14 | 48.6 a.u.
2'F-ANA at 2 3 7 10 12 14 | 329 a.u.
2'F-ANA at 5 8 10 12 13 15 | 179 a.u.
2'F-ANA at 2 3 4 5 9 12 13 14 15 | 66.6 a.u.
2'F-ANA at 1 2 6 7 12 14 15 | 62.5 a.u.
2'F-ANA at 1 3 4 5 6 8 9 10 11 15 | 47 a.u.
2'F-ANA at 2 3 5 6 7 9 12 15 | 175 a.u.
2'F-ANA at 1 8 10 11 12 15 | 67.4 a.u.
2'F-ANA at 2 3 8 10 11 14 | 274 a.u.
2'F-ANA at 2 4 8 10 12 13 15 | 99.6 a.u.
2'F-ANA at 2 3 4 5 6 10 11 13 15 | 87.3 a.u.
2'F-ANA at 1 2 3 4 6 9 12 13 | 179 a.u.
2'F-ANA at 7 8 9 11 13 | 477 a.u.
2'F-ANA at 1 3 4 5 8 10 14 | 43.7 a.u.
2'F-ANA at 1 3 9 10 13 15 | 79.2 a.u.
2'F-ANA at 1 3 5 6 7 8 9 10 12 13 | 48.8 a.u.
2'F-ANA at 3 5 8 10 11 14 15 | 51.9 a.u.
2'F-ANA at 2 5 7 11 14 | 47 a.u.
2'F-ANA at 2 4 7 9 10 12 | 162 a.u.

Repeated from above (sample 1):
Strand | E-score
CCACCGGC | -0.396
GCTTAGGA | -0.266
GGAGCTCC | -0.292
AGCTCTCC | -0.158
CACAAGAC | 0.0329
ACCCTATC | -0.0239
AATGATAC | 0.263
GAGGAATC | -0.137
